Experimental data gathered from unrelated publications.
± gives the spread as reported.
Cell line: RAW264.7

With CCCc1c(-c2ccc(O)cc2)nn(-c2ccc(O)cc2)c1-c1ccc(OCCN2CCCCC2)cc1 the IC50 was 29.3 µM (cell growth or viability, resazurin).
The IC50 of O=C(CCc1ccc(O)c(O)c1)NCCc1ccc(O)c(O)c1 is reported as greater than 20 µM (NO release, inhibitor, Griess; 24 h, LPS-stimulated).
With CC1=C(C)C(=O)O[C@@H]([C@@H](C)C2=C[C@H](O)[C@]3(O)[C@@H]4C[C@@H](O)[C@@]5(O)CC=CC(=O)[C@]5(C)[C@H]4CC[C@]23C)C1 the IC50 was 34.4 µM (NO release, inhibitor, Griess; LPS-stimulated).
For COc1c(CC=C(C)C)c(O)cc2c1-c1oc3c(CC=C(C)C)c(O)ccc3c1CO2, IC50 read “inactive” (nitric oxide production; up to 100 µM, together with: LPS).
With CCCCn1cc(C(=O)O)c(=O)c2cc(F)c(N)c([N+](=O)[O-])c21 the IC50 was 33.3 ± 2.25 µg/mL (nitric oxide production, Griess; 24 h, together with: LPS).
With CC1C(O)CC2(CO)CCC3(C)C(=CCC4C(C)(CCC(=O)O)C(C(C)(O)CO)CCC43C)C2C1C (centres unmarked) the IC50 was 9.37 µM (NO production, Griess; 24 h, pre-incubated with HMGB1 15 min, together with: HMGB1).
For CCc1c(-c2ccc(O)cc2)nn(-c2ccc(O)cc2)c1-c1ccc(OCCN2CCCCC2)cc1, the IC50 was 2.84 ± 0.12 µM (TNF-alpha production, inhibitor; together with: CpG-DNA).
COc1ccc2c(oc3c4ccc(O)cc4oc(=O)c23)c1CC=C(C)C: IC50 “inactive” (nitric oxide production; up to 100 µM, together with: LPS).
With CC/C=C\C/C=C\C/C=C\CCCCCCCC(=O)OC[C@@H](O)CO[C@@H]1O[C@H](CO)[C@H](O)[C@H](O)[C@H]1O the IC50 was 59.4 µM (NO release, inhibitor, Griess; 20 h, LPS-stimulated).
For CCC(=O)NCc1ccccc1, the IC50 was greater than 200 µM (PGE2 release, inhibitor, ELISA; 24 h, LPS-stimulated).
CC(C)C1=C(OC(=O)C(C)(C)C)C(=O)C2=C(C=C[C@H]3C(C)(C)CCC[C@]23C)C1=O has an IC50 of 4.19 µM (NO release, inhibitor; 24 h, LPS-stimulated).
The IC50 of C=CC(=O)Nc1ccc2c(c1)cc(C(=O)Nc1cccc(-c3cn4c(C(=O)OCC)csc4n3)c1)n2Cc1ccc(C(F)(F)F)cc1 is reported as 61.5 µM (NO release, inhibitor, Griess; 24 h, LPS-stimulated).
Under IC50, CC(C)=CCc1cc2c(cc1O)OCc1c-2oc2c(CC=C(C)C)c(O)ccc12 is recorded as “inactive” (nitric oxide production; up to 100 µM, together with: LPS).
For CN(C)C1CCN(c2nc3oc4ccccc4c(=O)c3s2)CC1, the IC50 was 8.19 µM (IL-1β release, inhibitor, ELISA; 48 h, LPS-stimulated).
CC(C)=CCc1cc(-c2coc3cc(O)c(CC=C(C)C)c(O)c3c2=O)ccc1O has an IC50 of 110 µM (cell growth or viability, MTT).
COc1ccc2c(c1CC=C(C)C)O[C@H]1c3cc4c(cc3OC[C@@]21O)OC(C)(C)C=C4: IC50 “inactive” (nitric oxide production; up to 100 µM, together with: LPS).
CC/C=C\C/C=C\C/C=C\CCCCCC(=O)OC[C@@H](O)CO[C@@H]1O[C@H](CO)[C@H](O)[C@H](O)[C@H]1O gave an IC50 of 63.8 µM (NO release, inhibitor, Griess; 20 h, LPS-stimulated).
C[C@@H]1C(=O)CC[C@@H]2[C@]1(C)CC[C@H]1[C@@]2(C)CC[C@@]2(C)[C@@H]3CC(C)(C)CC[C@]3(C)CC[C@]12C has an IC50 of greater than 100 µM (NO release, inhibitor, Griess; LPS-stimulated).
With CCOC(=O)c1csc2nc(-c3cccc(NC(=O)c4cc5cc(NC(=O)c6ccco6)ccc5n4Cc4ccc(C(F)(F)F)cc4)c3)cn12 the IC50 was 20 µM (NO release, inhibitor, Griess; 24 h, LPS-stimulated).
CC(C)C1=C(OC(=O)CCc2ccccc2)C(=O)C2=C(C=C[C@H]3C(C)(C)CCC[C@]23C)C1=O gave an IC50 of 3.48 µM (NO release, inhibitor; 24 h, LPS-stimulated).
With COc1ccc(CCNC(=O)CCc2ccc(O)c(O)c2)cc1OC the IC50 was greater than 10 µM (NO release, inhibitor, Griess; 24 h, LPS-stimulated).
For CCCCn1cc(C(=O)O)c(=O)c2cc(F)c3[nH]nnc3c21, the IC50 was 969 ± 177 µg/mL (nitric oxide production, Griess; 24 h, together with: LPS).
The IC50 of CC(C)=CCc1c2c(c(O)c3c(=O)c(-c4ccc(O)cc4)coc13)CC(C(C)(C)O)O2 (centres unmarked) is reported as 31.4 µM (cell growth or viability, MTT).
For O=c1c2cc(Cl)cc(Cl)c2oc2nc(N3CCCCC3)sc12, the IC50 was 22.2 µM (IL-1β release, inhibitor, ELISA; 48 h, LPS-stimulated).
CC(C)=CCc1cc(-c2coc3cc(O)c(CC=C(C)C)c(O)c3c2=O)ccc1O: IC50 “inactive” (nitric oxide production; up to 100 µM, together with: LPS).
With CCOC(=O)c1csc2nc(-c3cccc(NC(=O)c4cc5cc(NC(=O)C(C)Cl)ccc5n4Cc4ccc(C(F)(F)F)cc4)c3)cn12 (centres unmarked) the IC50 was 11 µM (NO release, inhibitor, Griess; 24 h, LPS-stimulated).
CC(C)=CCc1cc([C@@H]2CC(=O)c3c(O)cc(O)c(CC=C(C)C)c3O2)cc(CC=C(C)C)c1O — result for IC50: “inactive” (nitric oxide production; up to 100 µM, together with: LPS).
For O=c1c2cc(Cl)ccc2oc2nc(N3CCCCC3)sc12, the IC50 was 35.4 µM (IL-1β release, inhibitor, ELISA; 48 h, LPS-stimulated).
The IC50 of CC(C)=CCC[C@@](C)(O)[C@H]1CC[C@]2(C)[C@@H]1CC[C@@H]1[C@@]3(C)CCC(=O)C(C)(C)[C@@H]3CC[C@]12C is reported as 95.7 µM (NO release, inhibitor, Griess; LPS-stimulated).
For CC(=O)O[C@H]1C=C([C@H](C)[C@H]2CC(C)=C(C)C(=O)O2)[C@@]2(C)CC[C@H]3[C@@H](C[C@@H](O)[C@@]4(O)CC=CC(=O)[C@]34C)[C@]12O, the IC50 was 31.2 µM (NO release, inhibitor, Griess; LPS-stimulated).
Oc1ccc(-c2cc(-c3ccc(OCCCN4CCCCC4)cc3)n(-c3ccc(O)cc3)n2)cc1 has an IC50 of 12.4 µM (cell growth or viability, resazurin).
COC(=O)C1=COC(OC2OC(CO)C(O)C(O)C2O)C2C1C(OC(C)=O)CC2(C)O (centres unmarked) has an IC50 of 7.6 µM (NO release, inhibitor, Griess; LPS-stimulated).
CC(=O)O[C@H]1CC[C@]2(C)[C@H]3CC=C4[C@@H]5CC(C)(C)CC[C@]5(CO)CC[C@@]4(C)[C@]3(C)CC[C@H]2C1(C)C gave an IC50 of greater than 100 µM (NO release, inhibitor, Griess; LPS-stimulated).
CCn1cc(/C=C/c2sc3ccccc3[n+]2CC)c2ccccc21 gave an IC50 of greater than 20 µM (cell growth or viability, MTT; 24 h).
COc1ccc(-c2coc3c(CC=C(C)C)c(O)c(CC=C(C)C)c(O)c3c2=O)cc1O gave an IC50 of 57.6 µM (cell growth or viability, MTT).
